Results pooled from the literature.
Lines come from different studies, so protocols differ. ± gives the spread as reported.
PPM1D: Protein phosphatase 1D (PPM1D, Homo sapiens, UniProt O15297)
Sequence of UniProt O15297 (whole entry, looked up): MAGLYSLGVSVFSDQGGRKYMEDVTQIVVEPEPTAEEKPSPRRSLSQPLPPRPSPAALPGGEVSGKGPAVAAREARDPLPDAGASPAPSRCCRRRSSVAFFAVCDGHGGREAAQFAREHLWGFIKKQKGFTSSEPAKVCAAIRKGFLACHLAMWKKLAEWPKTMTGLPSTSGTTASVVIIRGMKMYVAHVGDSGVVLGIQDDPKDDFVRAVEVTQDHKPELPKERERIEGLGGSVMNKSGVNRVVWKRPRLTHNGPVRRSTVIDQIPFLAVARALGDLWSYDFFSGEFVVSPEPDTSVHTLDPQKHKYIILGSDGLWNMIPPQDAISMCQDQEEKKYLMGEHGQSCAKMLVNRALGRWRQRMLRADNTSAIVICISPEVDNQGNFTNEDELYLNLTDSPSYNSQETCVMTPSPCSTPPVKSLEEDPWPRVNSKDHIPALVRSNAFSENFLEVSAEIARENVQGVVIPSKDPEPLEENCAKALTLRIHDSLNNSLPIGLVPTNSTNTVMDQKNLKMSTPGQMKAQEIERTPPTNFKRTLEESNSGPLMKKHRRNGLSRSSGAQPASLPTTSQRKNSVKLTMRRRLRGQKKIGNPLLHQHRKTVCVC
Oprd1: Delta-type opioid receptor (Oprd1, Rattus norvegicus, UniProt P33533)
Sequence of UniProt P33533 (whole entry, looked up): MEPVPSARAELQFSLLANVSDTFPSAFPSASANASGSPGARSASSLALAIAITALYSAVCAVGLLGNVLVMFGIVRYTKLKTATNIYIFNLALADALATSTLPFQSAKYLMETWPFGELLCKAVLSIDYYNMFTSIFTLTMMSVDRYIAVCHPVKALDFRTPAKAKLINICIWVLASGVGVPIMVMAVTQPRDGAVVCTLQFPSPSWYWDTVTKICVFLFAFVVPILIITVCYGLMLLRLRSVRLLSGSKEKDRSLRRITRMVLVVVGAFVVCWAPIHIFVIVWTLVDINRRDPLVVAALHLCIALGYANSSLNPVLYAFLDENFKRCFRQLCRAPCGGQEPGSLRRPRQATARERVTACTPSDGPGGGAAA
ACHE: Acetylcholinesterase (ACHE, Homo sapiens, UniProt P22303)
Sequence of UniProt P22303 (whole entry, looked up): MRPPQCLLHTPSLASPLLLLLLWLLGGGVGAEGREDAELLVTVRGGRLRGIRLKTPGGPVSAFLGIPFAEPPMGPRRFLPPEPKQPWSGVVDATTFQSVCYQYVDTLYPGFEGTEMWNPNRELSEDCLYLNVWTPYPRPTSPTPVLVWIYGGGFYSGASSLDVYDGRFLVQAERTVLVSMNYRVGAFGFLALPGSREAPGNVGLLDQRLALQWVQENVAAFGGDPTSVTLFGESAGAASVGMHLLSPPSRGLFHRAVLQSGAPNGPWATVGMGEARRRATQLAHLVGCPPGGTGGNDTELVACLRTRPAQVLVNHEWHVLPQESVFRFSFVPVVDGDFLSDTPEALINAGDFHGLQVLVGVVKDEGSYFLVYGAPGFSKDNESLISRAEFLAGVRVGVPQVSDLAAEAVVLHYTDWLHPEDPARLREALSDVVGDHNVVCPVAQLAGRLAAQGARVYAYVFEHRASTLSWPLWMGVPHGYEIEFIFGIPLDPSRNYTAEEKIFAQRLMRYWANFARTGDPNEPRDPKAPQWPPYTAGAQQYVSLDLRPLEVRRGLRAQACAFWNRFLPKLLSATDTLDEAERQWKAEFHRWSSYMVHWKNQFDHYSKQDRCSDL
HTR6: 5-hydroxytryptamine receptor 6 (HTR6, Homo sapiens, UniProt P50406)
Sequence of UniProt P50406 (whole entry, looked up): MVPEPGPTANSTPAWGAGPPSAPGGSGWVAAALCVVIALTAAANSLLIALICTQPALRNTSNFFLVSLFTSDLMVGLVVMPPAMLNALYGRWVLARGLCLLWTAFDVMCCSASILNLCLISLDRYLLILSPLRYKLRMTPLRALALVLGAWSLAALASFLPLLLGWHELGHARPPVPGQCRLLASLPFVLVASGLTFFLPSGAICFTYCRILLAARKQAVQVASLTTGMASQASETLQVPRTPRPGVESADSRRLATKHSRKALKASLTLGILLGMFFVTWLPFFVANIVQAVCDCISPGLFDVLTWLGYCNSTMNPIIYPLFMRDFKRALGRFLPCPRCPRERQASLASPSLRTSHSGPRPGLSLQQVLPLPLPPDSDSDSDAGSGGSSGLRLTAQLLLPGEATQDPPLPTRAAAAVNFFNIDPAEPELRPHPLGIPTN
RXFP3: Relaxin-3 receptor 1 (RXFP3, Homo sapiens, UniProt Q9NSD7)
Sequence of UniProt Q9NSD7 (whole entry, looked up): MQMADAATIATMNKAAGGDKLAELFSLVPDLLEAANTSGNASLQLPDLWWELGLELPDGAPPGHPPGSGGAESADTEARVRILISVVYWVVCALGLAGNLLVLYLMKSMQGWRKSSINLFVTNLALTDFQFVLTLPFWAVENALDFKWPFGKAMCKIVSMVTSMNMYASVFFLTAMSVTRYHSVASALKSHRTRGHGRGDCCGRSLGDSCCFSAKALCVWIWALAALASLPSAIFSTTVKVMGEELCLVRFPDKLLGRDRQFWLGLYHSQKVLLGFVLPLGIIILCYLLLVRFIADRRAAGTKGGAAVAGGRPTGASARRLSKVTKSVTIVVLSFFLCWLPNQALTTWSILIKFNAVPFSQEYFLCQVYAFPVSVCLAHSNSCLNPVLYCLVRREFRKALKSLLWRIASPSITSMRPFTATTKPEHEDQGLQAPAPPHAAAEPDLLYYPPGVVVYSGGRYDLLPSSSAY
Sequence of UniProt P04062 (whole entry, unmodified, looked up): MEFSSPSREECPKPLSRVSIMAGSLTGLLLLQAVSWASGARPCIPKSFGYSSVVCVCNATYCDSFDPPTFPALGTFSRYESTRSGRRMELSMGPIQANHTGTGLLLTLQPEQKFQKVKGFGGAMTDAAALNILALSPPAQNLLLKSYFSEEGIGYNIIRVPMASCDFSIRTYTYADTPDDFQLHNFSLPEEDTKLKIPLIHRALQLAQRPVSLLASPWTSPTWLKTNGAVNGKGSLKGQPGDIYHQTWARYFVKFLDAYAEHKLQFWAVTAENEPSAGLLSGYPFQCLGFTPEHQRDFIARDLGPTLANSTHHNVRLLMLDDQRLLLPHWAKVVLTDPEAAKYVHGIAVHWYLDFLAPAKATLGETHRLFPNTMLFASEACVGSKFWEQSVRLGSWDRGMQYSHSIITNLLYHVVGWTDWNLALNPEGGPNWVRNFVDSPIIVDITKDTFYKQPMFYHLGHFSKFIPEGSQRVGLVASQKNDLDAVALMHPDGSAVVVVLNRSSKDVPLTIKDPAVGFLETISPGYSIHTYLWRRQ
Sequence of UniProt P29117 (whole entry, looked up): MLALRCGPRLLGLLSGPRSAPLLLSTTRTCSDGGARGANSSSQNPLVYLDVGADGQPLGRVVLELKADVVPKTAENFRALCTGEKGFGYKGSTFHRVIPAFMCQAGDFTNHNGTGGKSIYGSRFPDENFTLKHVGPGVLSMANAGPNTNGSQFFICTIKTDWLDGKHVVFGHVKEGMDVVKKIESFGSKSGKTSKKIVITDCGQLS
Sequence of UniProt Q07812 (whole entry, looked up): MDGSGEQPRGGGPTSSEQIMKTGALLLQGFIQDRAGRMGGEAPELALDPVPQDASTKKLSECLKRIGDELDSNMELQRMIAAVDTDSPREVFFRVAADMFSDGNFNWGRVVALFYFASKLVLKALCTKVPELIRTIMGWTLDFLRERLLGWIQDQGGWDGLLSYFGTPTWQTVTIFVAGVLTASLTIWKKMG
Sequence of UniProt P42685 (whole entry, looked up): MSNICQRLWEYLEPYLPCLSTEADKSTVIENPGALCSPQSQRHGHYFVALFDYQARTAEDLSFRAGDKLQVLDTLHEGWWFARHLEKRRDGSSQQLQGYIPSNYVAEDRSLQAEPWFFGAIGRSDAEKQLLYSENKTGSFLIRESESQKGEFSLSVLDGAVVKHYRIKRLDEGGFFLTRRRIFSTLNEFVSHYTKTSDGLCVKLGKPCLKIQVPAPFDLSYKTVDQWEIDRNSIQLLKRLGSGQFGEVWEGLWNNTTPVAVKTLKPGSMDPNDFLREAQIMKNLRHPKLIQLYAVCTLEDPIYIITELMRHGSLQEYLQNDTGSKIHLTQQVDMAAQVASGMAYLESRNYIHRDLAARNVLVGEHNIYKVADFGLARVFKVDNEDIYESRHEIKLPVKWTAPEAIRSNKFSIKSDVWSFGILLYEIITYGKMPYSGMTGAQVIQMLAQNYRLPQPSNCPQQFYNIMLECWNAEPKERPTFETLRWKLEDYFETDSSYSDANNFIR
Sequence of UniProt P49841 (whole entry, looked up): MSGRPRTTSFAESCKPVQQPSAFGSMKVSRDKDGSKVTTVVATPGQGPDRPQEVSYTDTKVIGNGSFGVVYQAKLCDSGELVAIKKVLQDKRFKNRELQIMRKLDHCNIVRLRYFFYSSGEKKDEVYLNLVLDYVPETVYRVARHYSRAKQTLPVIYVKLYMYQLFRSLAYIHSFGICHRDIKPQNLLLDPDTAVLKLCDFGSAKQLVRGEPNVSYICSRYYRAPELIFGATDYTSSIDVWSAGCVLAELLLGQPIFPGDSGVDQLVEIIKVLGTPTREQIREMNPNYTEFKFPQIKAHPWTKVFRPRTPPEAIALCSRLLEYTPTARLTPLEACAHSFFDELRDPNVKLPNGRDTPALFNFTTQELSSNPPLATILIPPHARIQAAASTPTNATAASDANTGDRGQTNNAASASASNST
Sequence of UniProt P50391 (whole entry, looked up): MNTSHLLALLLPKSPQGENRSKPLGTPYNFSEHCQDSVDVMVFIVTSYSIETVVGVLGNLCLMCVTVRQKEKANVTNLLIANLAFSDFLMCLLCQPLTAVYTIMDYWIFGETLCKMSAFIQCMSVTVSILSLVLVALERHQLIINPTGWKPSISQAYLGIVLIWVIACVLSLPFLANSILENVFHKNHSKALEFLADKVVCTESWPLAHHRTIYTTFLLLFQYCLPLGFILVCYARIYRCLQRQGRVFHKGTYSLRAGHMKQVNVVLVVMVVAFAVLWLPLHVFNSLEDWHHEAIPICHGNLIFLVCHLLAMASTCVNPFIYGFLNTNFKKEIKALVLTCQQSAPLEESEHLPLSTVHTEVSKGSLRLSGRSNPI

With `Nc1ncnc2c1ncn2[C@@H]1O[C@H](COP(=O)(O)OP(=O)(O)NP(=O)(O)O)[C@@H](O)[C@H]1O` the Ki was 8600 nM (S-adenosylmethionine synthase isoform type-2 (MAT2A, Homo sapiens, UniProt P31153); enzyme activity, inhibitor).
For `N=C(N)Nc1cccc(C(=O)NCC2(Nc3ccccc3)CCN(Cc3ccccc3)CC2)c1`, the Ki was 993 nM (Neuropeptide FF receptor 2 (Homo sapiens, UniProt Q9Y5X5); cell-free assay).
`CC[C@H](C)[C@@H]1NC(=O)[C@H](COP(=O)(O)O)NC(=O)[C@H](Cc2ccccc2)NC(=O)CSC[C@@H](C(N)=O)NC(=O)[C@H](CC(=O)O)NC(=O)[C@H](CC(=O)O)NC(=O)[C@H](Cc2ccc(OP(=O)(O)O)cc2)NC1=O` has a Ki of 110 nM (PPM1D; enzyme activity, inhibitor, absorbance).
The Ki of `CCOC(=O)c1cc(Cc2ccccc2)cc2c1NCCC2NC(=O)C(N)Cc1c(C)cc(O)cc1C` (stereo not shown) is reported as 3.7 nM (Oprd1; ligand displacement, radioligand; cell membranes).
With `CC[C@H](C)[C@@H]1NC(=O)[C@H](CCOP(=O)(O)O)NC(=O)[C@H](CCc2ccccc2)NC(=O)CSC[C@@H](C(N)=O)NC(=O)[C@H](CC(=O)O)NC(=O)[C@H](CC(=O)O)NC(=O)[C@H](Cc2ccc(OP(=O)(O)O)cc2)NC1=O` the Ki was 19000 ± 2000 nM (PPM1D; phosphatase activity, inhibitor, malachite green; with: ATM pS1981 peptide).
The Ki of `Cc1cc(O)cc(C)c1CC(N)C(=O)NC1CCNc2c(C(=O)O)cc(Cc3ccccc3)cc21` (stereo not shown) is reported as 2.4 nM (Oprd1; ligand displacement, radioligand; cell membranes).
For `O=c1ccoc2ccc(OCCCCN3CCCC3)cc12`, the Ki was 1150 nM (ACHE; enzyme activity, inhibitor, Ellman).
`NCC(=O)NCC1(Nc2ccccc2)CCN(Cc2ccccc2)CC1` has a Ki of 3430 nM (Neuropeptide FF receptor 1 (NPFFR1, Homo sapiens, UniProt Q9GZQ6); cell-free assay).
With `CNC(C)C(=O)NC1COC2CCC(C(=O)NCc3ccccc3)N2C1=O` (mixture of isomers) the Ki was > 25000 nM (Baculoviral IAP repeat-containing protein 7 (Homo sapiens, UniProt Q96CA5); binding, fluorescence polarization competition; BIR domain; with: AVPIAQK-rhodamine probe).
`Cc1cc(O)cc(C)c1CC(N)C(=O)NC1CCNc2c1cc(Cc1ccccc1)cc2C(F)(F)F` (stereo not shown) has a Ki of 2.2 nM (Oprd1; ligand displacement, radioligand; cell membranes).
With `CNC(=O)C1CCN(c2ccccc2NC(=O)c2ccc(-c3cc(O)ccc3C)c(C)n2)CC1` the Ki was 5.2 nM (Tyrosine-protein kinase FRK (FRK, Homo sapiens, UniProt P42685); cell-free assay, TR-FRET).
For `CC(=O)N[C@@H](CCCNC(=N)N)C(=O)N[C@@H](Cc1ccc(O)cc1)C(=O)N[C@@H](CCCN/C(N)=N/C(=O)NCCCCN)C(=O)N[C@@H](CC(C)C)C(=O)N[C@@H](CCCNC(=N)N)C(=O)N[C@@H](Cc1ccc(O)cc1)C(N)=O`, the Ki was 2.87 nM (Neuropeptide Y receptor type 4 (NPY4R, Homo sapiens, UniProt P50391); ligand displacement, radioligand).
`Cc1cc(O)cc(C)c1CC(N)C(=O)NC1CCNc2c1cc(Cc1ccccc1)cc2C(C)(C)C` (stereo not shown) gave a Ki of 3.8 nM (Oprd1; ligand displacement, radioligand; cell membranes).
The Ki of `CC(C)=CCCC1(C)C=Cc2c(ccc3cc(-c4cc(O)cc(O)c4CC=C(C)C)oc23)O1` (stereo not shown) is reported as 5540 nM (Glycogen synthase kinase-3 beta (GSK3B, Homo sapiens, UniProt P49841); kinase activity, Kinase-Glo, Dixon plot; competitive with ATP, with: substrate 25 µM constant).
With `CC(C)CN(C[C@@H](O)[C@H](Cc1ccccc1)NC(=O)O[C@H]1CO[C@H]2OCC(F)(F)[C@H]21)S(=O)(=O)c1ccc(N)cc1` the Ki was 1.9 ± 0.7 nM (Gag-Pol polyprotein, protease (Human immunodeficiency virus type 1 group M subtype B, UniProt P03367, C567A/C595A/L533I/L563I/L576V/Q507K); protease activity, inhibitor).
For `CCN(C)C(=O)Oc1ccccc1/C=C1\Cc2cc(OC)c(OC)cc2C1=O`, the Ki was 1.58 nM (Cocaine esterase (CES2, Homo sapiens, UniProt O00748); enzyme inactivation, inactivator, inactivation kinetics).
For `CCC(=O)N[C@H]1c2nc(CCc3ccccc3)cn2[C@H](CO)[C@@H](O)[C@@H]1O`, the Ki was 2.7 ± 0.4 nM (human lysosomal hexosaminidase A/B).
With `COc1cc2c(cc1OC)C(=O)/C(=C\c1ccc(N3CCCCC3)cc1)C2` the Ki was 2100 nM (ACHE; enzyme activity, inhibitor).
With `CCCCCCCCCCCC(=O)NCC(=O)NCC(=O)N[C@@H](CO)C(=O)NCC(=O)N[C@@H](CO)C(=O)NCC(=O)N[C@H]1CSSC[C@@H]2NC(=O)CNC(=O)[C@H](C)NC(=O)[C@H](CC(C)C)NC(=O)[C@@H]3CSSC[C@@H](C(=O)NCC(=O)O)NC(=O)[C@H](Cc4ccccc4)NC(=O)CNC(=O)[C@H](CC(N)=O)NC(=O)[C@@H]4CCCN4C(=O)CNC(=O)[C@H](CSSC[C@H](NC(=O)[C@H](CCCNC(=N)N)NC(=O)[C@H](CCSC)NC(=O)[C@H](CC(C)C)NC(=O)[C@H]([C@@H](C)CC)NC(=O)[C@H](CCCNC(=N)N)NC(=O)[C@@H]4CCCN4C1=O)C(=O)N[C@@H](CCCCN)C(=O)N[C@@H](CCC(N)=O)C(=O)N[C@@H](CC(=O)O)C(=O)N[C@@H](CO)C(=O)N[C@@H](CC(=O)O)C(=O)N3)NC(=O)[C@H](C(C)C)NC2=O` the Ki was 0.102 nM (Trypsin (Sus scrofa, UniProt P00761); enzyme activity, inhibitor, fluorescence; with preincubation).
`COc1ccc2c(c1)c(CCN(C)C)cn2Cc1ccccc1` gave a Ki of 23 nM (HTR6; ligand displacement, radioligand; cell membranes).
`[2H]C([2H])(C)N1CCN(C2=Nc3cc(Cl)ccc3Nc3ccccc32)CC1` gave a Ki of 5 nM (Histamine H1 receptor (HRH1, Homo sapiens, UniProt P35367); cell-free assay, radioligand).
`CC[C@@H]1NC(=O)[C@H](CCCNC(=N)N)NC(=O)[C@H](NC(=O)C(C)C)CCNC(=O)c2cc(F)c(c(F)c2)N=Nc2c(F)cc(cc2F)C(=O)NCCNC(=O)[C@@H](Cc2ccccc2)NC1=O` has a Ki of 64.7 nM (WD repeat-containing protein 5 (WDR5, Homo sapiens, UniProt P61964); competitive fluorescence polarization; trans PSS at 405 nm).
For `OC[C@@H]1[C@@H](O)[C@H](O)[C@@H](O)[C@H]2N[C@@H]12`, the Ki was 6800 nM (Lysosomal acid glucosylceramidase (GBA1, Homo sapiens, UniProt P04062, R534H); enzyme activity, inhibitor).
For `COc1ccc2ccc3c(c2c1)C=[N+]1C2CCCCC2[N+]2=Cc4cccc(OC)c4[O][Au-]21[O]3.F[P-](F)(F)(F)(F)F` (stereo not shown), the Ki was 1500 nM (Klebsiella pneumoniae glutathione reductase; competitive inhibitor; carbapenem-resistant; with: GSSG).
The Ki of `C1CN2CN1CN1CCN(C1)C2` is reported as 57.2 nM (Apoptosis regulator BAX (BAX, Homo sapiens, UniProt Q07812); ligand displacement, FP).
For `CN1CCN(c2cn(C(=O)c3ccccc3)c3ccccc23)CC1`, the Ki was 187 nM (HTR6; ligand displacement, radioligand; cell membranes).
With `CC[C@H](C)[C@@H]1NC(=O)[C@@H](NC(=O)[C@H](CCC(=O)O)NC(=O)[C@H](CCCNC(=N)N)NC(=O)CNC(=O)[C@H](CO)NC(=O)[C@H](CC(C)C)NC(=O)[C@H](CCCNC(=N)N)NC(=O)[C@@H](NC(=O)CNC(=O)[C@H](Cc2ccc(O)cc2)NC(=O)[C@@H]2CCCN2C(=O)[C@H](C)NC(=O)[C@H](C)NC(=O)[C@@H](N)CCCNC(=N)N)C(C)C)CCCCNC(=O)C[C@@H](C(=O)N[C@H](C(=O)N[C@@H](Cc2ccccc2)C(=O)N[C@H](C(=O)N[C@@H](CO)C(=O)NCC(=O)NCC(=O)N[C@@H](CO)C(=O)N[C@@H](CCCNC(=N)N)C(=O)N[C@@H](Cc2c[nH]c3ccccc23)C(=O)O)[C@@H](C)O)[C@@H](C)CC)NC(=O)[C@H](C)NC(=O)[C@H](CCCNC(=N)N)NC1=O` the Ki was 1290 nM (RXFP3; ligand displacement).
For `C=C(c1ccccc1)[C@@H](N)P(=O)(O)O`, the Ki was 40 nM (PAL1 (Petroselinum crispum, UniProt P24481); enzyme activity, inhibitor, absorbance; pH 8.8).
The Ki of `O=C(O)COc1ccc(Cl)cc1Cl` is reported as > 1000 nM (IAA7/TIR1 (Arabidopsis thaliana, UniProt Q38825+Q570C0); binding; with: [3H]IAA).
With `COc1ccc(CNCCN2C(=O)c3cccc4cccc(c34)C2=O)cc1` the Ki was > 100000 nM (Chitooligosaccharidolytic beta-N-acetylglucosaminidase (Ostrinia furnacalis, UniProt Q06GJ0, W490A); inhibitor).
`C/C=C/C[C@@H](C)[C@@H](O)[C@H]1C(=O)N[C@@H](CC)C(=O)N(C)C(Cc2ccc(C(=O)NCCCCCCNC(=O)OCC3c4ccccc4-c4ccccc43)cc2)C(=O)N(C)[C@@H](CC(C)C)C(=O)N[C@@H](C(C)C)C(=O)N(C)[C@@H](CC(C)C)C(=O)N[C@@H](C)C(=O)N[C@H](C)C(=O)N(C)[C@@H](CC(C)C)C(=O)N(C)[C@@H](CC(C)C)C(=O)N(C)[C@@H](C(C)C)C(=O)N1C` (stereo partly shown) gave a Ki of 160 nM (Peptidyl-prolyl cis-trans isomerase F, mitochondrial (Ppif, Rattus norvegicus, UniProt P29117); PPIase activity, inhibitor; pH 7.5, 15 °C).
For `CC[C@H](C)[C@H](NC(=O)[C@]1(C)CCCC=CCCC[C@](C)(NC(=O)[C@H](CCC(=O)O)NC(=O)[C@H](CCCNC(=N)N)NC(=O)CNC(=O)[C@H](CO)NC(=O)[C@H](CC(C)C)NC(=O)[C@@H](N)CCCNC(=N)N)C(=O)N[C@@H]([C@@H](C)CC)C(=O)N[C@@H](CCCNC(=N)N)C(=O)N[C@@H](C)C(=O)N1)C(=O)N[C@@H](Cc1ccccc1)C(=O)N[C@H](C(=O)N[C@@H](CO)C(=O)NCC(=O)NCC(=O)N[C@@H](CO)C(=O)N[C@@H](CCCNC(=N)N)C(=O)N[C@@H](Cc1c[nH]c2ccccc12)C(=O)O)[C@@H](C)O`, the Ki was 479 nM (RXFP3; ligand displacement).
With `CCCCCCCCNP(=O)(Nc1ccccc1)O[C@@H]1O[C@H](CO)[C@@H](O)[C@H](O)[C@H]1F` (stereo partly shown) the Ki was 4800 nM (Lysosomal acid glucosylceramidase (GBA1, Homo sapiens, UniProt P04062); enzyme activity, irreversible inhibitor; pH 5.5, 37 °C, with: 2,4-dinitrophenyl beta-D-glucopyranoside).
For `CC(=O)N1CCC(NC(=O)C(N)Cc2c(C)cc(O)cc2C)c2cc(CN3CCC4CCCCC4C3)ccc21` (stereo not shown), the Ki was 2 nM (Oprd1; ligand displacement, radioligand; cell membranes).

Excerpt of the above:
With `CC[C@H](C)[C@@H]1NC(=O)[C@@H](NC(=O)[C@H](CCC(=O)O)NC(=O)[C@H](CCCNC(=N)N)NC(=O)CNC(=O)[C@H](CO)NC(=O)[C@H](CC(C)C)NC(=O)[C@H](CCCNC(=N)N)NC(=O)[C@@H](NC(=O)CNC(=O)[C@H](Cc2ccc(O)cc2)NC(=O)[C@@H]2CCCN2C(=O)[C@H](C)NC(=O)[C@H](C)NC(=O)[C@@H](N)CCCNC(=N)N)C(C)C)CCCCNC(=O)C[C@@H](C(=O)N[C@H](C(=O)N[C@@H](Cc2ccccc2)C(=O)N[C@H](C(=O)N[C@@H](CO)C(=O)NCC(=O)NCC(=O)N[C@@H](CO)C(=O)N[C@@H](CCCNC(=N)N)C(=O)N[C@@H](Cc2c[nH]c3ccccc23)C(=O)O)[C@@H](C)O)[C@@H](C)CC)NC(=O)[C@H](C)NC(=O)[C@H](CCCNC(=N)N)NC1=O` the Ki was 1290 nM (RXFP3; ligand displacement).
`Cc1cc(O)cc(C)c1CC(N)C(=O)NC1CCNc2c1cc(Cc1ccccc1)cc2C(C)(C)C` (stereo not shown) gave a Ki of 3.8 nM (Oprd1; ligand displacement, radioligand; cell membranes).
For `CC(=O)N[C@@H](CCCNC(=N)N)C(=O)N[C@@H](Cc1ccc(O)cc1)C(=O)N[C@@H](CCCN/C(N)=N/C(=O)NCCCCN)C(=O)N[C@@H](CC(C)C)C(=O)N[C@@H](CCCNC(=N)N)C(=O)N[C@@H](Cc1ccc(O)cc1)C(N)=O`, the Ki was 2.87 nM (Neuropeptide Y receptor type 4 (NPY4R, Homo sapiens, UniProt P50391); ligand displacement, radioligand).
The Ki of `Cc1cc(O)cc(C)c1CC(N)C(=O)NC1CCNc2c(C(=O)O)cc(Cc3ccccc3)cc21` (stereo not shown) is reported as 2.4 nM (Oprd1; ligand displacement, radioligand; cell membranes).
With `CNC(C)C(=O)NC1COC2CCC(C(=O)NCc3ccccc3)N2C1=O` (mixture of isomers) the Ki was > 25000 nM (Baculoviral IAP repeat-containing protein 7 (Homo sapiens, UniProt Q96CA5); binding, fluorescence polarization competition; BIR domain; with: AVPIAQK-rhodamine probe).
For `CC[C@H](C)[C@H](NC(=O)[C@]1(C)CCCC=CCCC[C@](C)(NC(=O)[C@H](CCC(=O)O)NC(=O)[C@H](CCCNC(=N)N)NC(=O)CNC(=O)[C@H](CO)NC(=O)[C@H](CC(C)C)NC(=O)[C@@H](N)CCCNC(=N)N)C(=O)N[C@@H]([C@@H](C)CC)C(=O)N[C@@H](CCCNC(=N)N)C(=O)N[C@@H](C)C(=O)N1)C(=O)N[C@@H](Cc1ccccc1)C(=O)N[C@H](C(=O)N[C@@H](CO)C(=O)NCC(=O)NCC(=O)N[C@@H](CO)C(=O)N[C@@H](CCCNC(=N)N)C(=O)N[C@@H](Cc1c[nH]c2ccccc12)C(=O)O)[C@@H](C)O`, the Ki was 479 nM (RXFP3; ligand displacement).
